Measured values pooled from the literature.
Compare with care: the assays were run in different laboratories. “And” joins repeats or separate records; there may be more than shown. ± marks the error that the study gave.

C=CC(=O)N1CC2C(=O)N(CCN(C)C)c3c(c4cc(Cl)c(-c5c(O)cccc5F)nc4n(-c4c(C)ccnc4C(C)C)c3=O)N2CC1C (stereo not shown)  tumour regression (SW837, mouse xenograft; oral, 10 mg/kg once daily): 107%
COc1cnc2cccc(N3CCc4c(cc(Cn5ccnc5)cc4-c4cn(C)nc4C(F)(F)F)C3=O)c2c1  tumour volume (BALB/c nude mouse, MV4-11 xenograft; intraperitoneal, 50 mg/kg, day 10 after inoculation): 165 mm3 and 100 mm3 and 149 mm3 and 143 mm3 and 158 mm3
COc1cc(N2CCN(C(=O)C3CCCN3)CC2)ccc1Nc1ncc(Cl)c(Nc2ccccc2P(C)(C)=O)n1 (stereo not shown)  tumour volume (NCI-H3122, mouse, H3122 xenograft; oral, 25 mg/kg every two days, 8 doses, 48 h): 686 mm3 and 454 mm3 and 474 mm3
COc1c(Cl)cccc1Nc1c(-c2ccncc2OC[C@@H]2COCCO2)[nH]c2c1C(=O)NCC2  tumour weight T/C (mouse, NSCLC PDX sample A; oral, 25 mg/kg once daily, day 27, unit not given; reference: vehicle): 0.16
CC(C)c1ccccc1[C@@H]1CCCN1C1CC2(CCN(c3ccc(C(=O)NS(=O)(=O)c4ccc(NC[C@H]5CC[C@](C)(O)CC5)c([N+](=O)[O-])c4)c(Oc4cnc5[nH]ccc5c4)c3)CC2)C1  tumour growth inhibition (mouse Maver1 xenograft; oral, 5 mg/kg once daily, day 14): 86%
CSCC[C@@H]1NC(=O)[C@H](CC(N)=O)NC(=O)[C@@H](NC(=O)CCOCCOCCOCCNC(=O)CN2CCN(CC(=O)O)CCN(CC(=O)O)CC2)CSSC[C@@H](C(=O)O)NC(=O)[C@H](C(C)C)NC(=O)[C@H](CCSC)NC(=O)[C@@H]2CCCN2C(=O)[C@H]([C@@H](C)O)NC(=O)[C@H](Cc2c[nH]cn2)NC1=O [gallium-68 labelled]  tumour uptake (PET; mouse, CHO-hLAG-3 xenograft; iv, 60 min): 0.37 ± 0.02 %ID/g
CC1(C)CCC(CN2CCN(c3ccc(C(=O)NS(=O)(=O)c4ccc(NCC5CCOCC5)c([N+](=O)[O-])c4)c(Oc4cnc5[nH]ccc5c4)c3)CC2)=C(c2ccc(Cl)cc2)C1  tumour growth inhibition (mouse Toledo xenograft; oral, 50 mg/kg once daily, day 31): 85%
CO.Cc1ccc2c(Cl)cc(Cl)c([O-])c2n1.Cc1ccc2c(Cl)cc(Cl)c([O-])c2n1.[Co+2].c1ccc2nc3c4cccnc4c4ncccc4c3nc2c1  tumour volume (nude mouse, HeLa xenograft; 2.0 mg/kg, start of treatment): 82.4 ± 27 mm3
CC(C)c1ccc(N(C)c2ccc3c(c2)OCC[C@H]3CNc2cnccc2C(=O)O)cc1  tumour growth inhibition (mouse, sample A gastric PDX; 15 mg/kg, day 38): 69%
COC(=O)C1CN1S(=O)(=O)c1ccc2cc(C)ccc2c1 (stereo not shown)  tumour volume (mouse, Lewis lung carcinoma; ip, 100 mg/kg, 336 h): 751 mm3

Some of these lines once more:
CC(C)c1ccc(N(C)c2ccc3c(c2)OCC[C@H]3CNc2cnccc2C(=O)O)cc1  tumour growth inhibition (mouse, sample A gastric PDX; 15 mg/kg, day 38): 69%
COC(=O)C1CN1S(=O)(=O)c1ccc2cc(C)ccc2c1 (stereo not shown)  tumour volume (mouse, Lewis lung carcinoma; ip, 100 mg/kg, 336 h): 751 mm3
